{"data": "Published values collected from several papers", "note": "Protocols differ between the studies behind these lines. ± gives the spread as reported."}
{"SMILES": "C[C@H]1Oc2cc(cnc2N)-c2c(nn(C)c2C#N)CN(C)C(=O)c2ccc(F)cc21", "tested on": "Ba/F3 parental", "test": "cell viability", "conditions": "with: 10 ng/mL IL-3", "endpoint": "IC50", "value": "> 10 µM"}
{"SMILES": "Cc1nc(Nc2ncc(C(=O)Nc3c(C)cccc3Cl)s2)cc(N2CCN(CCO)CC2)n1", "tested on": "NOK", "test": "viability, CellTiter-Glo", "conditions": "72 h", "endpoint": "IC50", "value": "0.44 µM"}
{"SMILES": "CN(C)c1ncnc2nc[nH]c12", "test": "binding, MIDAS equilibrium dialysis LC-MS", "test system": "A2AR-BRIL thermostabilized", "conditions": "concentration not given", "how to read": "baseline: no-protein control", "endpoint": "log2 fold change", "value": 3.7}
{"SMILES": "Cc1c(C(=O)O)ccc2c3n(nc12)[C@@H]1[C@H](C3)N(CC2CC2)[C@@]2(C(=O)Nc3cc(Cl)ccc32)[C@H]1c1cccc(Cl)c1F", "tested on": "UACC-812 (MDM2-amplified)", "test": "cell growth, alamarBlue", "conditions": "120 h", "endpoint": "IC50", "value": "0.24 µM"}
{"SMILES": "Nc1nc(=O)c2nc(CNc3ccc(C(=O)N[C@@H](CCC(=O)O)C(=O)O)cc3)cnc2[nH]1", "test": "binding, MIDAS equilibrium dialysis LC-MS", "test system": "A2AR-BRIL thermostabilized", "conditions": "concentration not given", "how to read": "baseline: no-protein control", "endpoint": "log2 fold change", "value": -0.254}
{"SMILES": "CCc1cc2ncc(CN3CCN(c4ccc(C(=O)NC)nc4)CC3)cc2[nH]c1=O", "tested on": "SK-OV-3 PALB2 knockout", "test": "colony formation", "endpoint": "IC50", "value": "0.00042 µM"}
{"SMILES": "CN1CCN(c2ccc3nc(-c4c(N)c5c(F)cccc5[nH]c4=O)[nH]c3c2)CC1", "tested on": "primary AML mononuclear cells, FLT3-ITD negative", "test": "cell viability, MTS", "conditions": "ex vivo", "endpoint": "IC50", "value": "2.51 µM"}
{"SMILES": "C[C@@H]1CC[C@@H]([C@](O)(CNCc2cccc3ccccc23)COCc2ccccc2)[C@H](OCc2ccccc2)C1", "tested on": "HeLa", "test": "cell growth, inhibitor, MTT", "conditions": "72 h", "endpoint": "IC50", "value": "2.56 µM"}
{"SMILES": "CCN1CCN(Cc2ccc(NC(=O)c3ccc(C)c(/C=C/c4cnc5[nH]ccc5c4OC)c3)cc2C(F)(F)F)CC1", "tested on": "Ba/F3 BCR-ABL", "test": "cell proliferation, CellTiter-Glo", "conditions": "48 h", "endpoint": "IC50", "value": "< 0.01 µM"}
{"SMILES": "CCCCN1C[C@H](O)[C@@H](O)[C@@H](O)[C@H]1CO", "tested on": "sample E patient fibroblasts", "test": "GlcCer level lowering, LC-MS/MS, measured: GlcCer d18:1/24:1", "conditions": "216 h", "endpoint": "IC50", "value": "51.8 µM"}
{"SMILES": "c1ccc([I+]c2ccccc2)cc1", "tested on": "Caco-2", "test": "cell growth, trypan blue count", "conditions": "48 h", "endpoint": "IC50", "value": "~0.155 µM"}
{"SMILES": "COc1cccc2c1C(=O)c1c(O)c3c(c(O)c1C2=O)C[C@@](O)(C(=O)CO)C[C@@H]3O[C@H]1C[C@H](N)[C@H](O)[C@H](C)O1", "tested on": "THLE-2 without CYP expression", "test": "cytotoxicity", "conditions": "48 h", "endpoint": "IC50", "value": "3.5 ± 1 µM"}
{"SMILES": "COc1ccc(F)cc1C(=O)NCc1ccc(-c2nn([C@@H](C)C(F)(F)F)c(N)c2C(N)=O)cc1", "tested on": "healthy-donor PBMC CD19+ B cells", "test": "measured: CD69", "conditions": "with: anti-IgM", "endpoint": "IC50", "value": "0.0047 ± 0.0017 µM"}
{"SMILES": "CC(C)(C)c1cc(NC(=O)Nc2ccc(-c3cn4c(n3)sc3cc(OCCN5CCOCC5)ccc34)cc2)no1", "tested on": "primary AML mononuclear cells, FLT3-ITD negative", "test": "cell viability, MTS", "conditions": "ex vivo", "endpoint": "IC50", "value": "2.33 µM"}
{"SMILES": "COC(=O)CN=c1scc(-c2ccccc2)n1-c1ccc(Cl)cc1", "tested on": "Panc 04.03", "test": "cell viability, MTT", "conditions": "72 h", "endpoint": "IC50", "value": "5.26 µM"}
{"SMILES": "C#CCCCCCCCCC=CCC(O)CC(O)CO (centres unmarked)", "tested on": "Vero", "test": "cytotoxicity", "endpoint": "IC50", "value": "> 47.6 µg/mL"}
{"SMILES": "Cc1cc(Nc2ncc(Cl)c(Nc3ccccc3S(=O)(=O)C(C)C)n2)c(OC(C)C)cc1C1CCNCC1", "tested on": "Rh2 (embryonal rhabdomyosarcoma)", "test": "cell growth", "conditions": "3 days", "endpoint": "IC50", "value": "0.77 ± 0.15 µM"}
{"SMILES": "C=C1C[C@](OC)([C@H](OCOC/C=C/B2OC(CC)(CC)C(CC)(CC)O2)C(=O)NC[C@@H]2C[C@@H](OC)C(C)(C)[C@@H](C[C@@H](COC)OC)O2)O[C@H](C)[C@@H]1C", "tested on": "Renca", "test": "cell viability, sulforhodamine B", "conditions": "72 h, 37 °C, with: H2O2 100 µM", "endpoint": "IC50", "value": "0.003 ± 0.0003 µM"}
{"SMILES": "Cn1cc(-c2ccc(-c3cncc(Cl)c3N3CCC4(CCNC4=O)CC3)cc2)cn1", "tested on": "COLO 205", "test": "TCF/LEF reporter gene, inhibitor", "endpoint": "IC50", "value": "0.038 µM"}
{"SMILES": "COc1cc(N2CCC(N3CCN(C)CC3)CC2)ccc1Nc1ncc(Cl)c(Nc2ccccc2S(=O)(=O)C(C)C)n1", "tested on": "Rh2 (embryonal rhabdomyosarcoma)", "test": "cell growth", "conditions": "3 days", "endpoint": "IC50", "value": "0.18 ± 0.04 µM"}
{"SMILES": "COc1cc2c3c(n(CCCNCCO)c(=O)c2cc1OC)-c1nc2c(cc1C3=O)OCO2", "tested on": "CHLA-99 Ewing sarcoma cells", "test": "cytotoxicity, MTS", "conditions": "72 h", "endpoint": "IC50", "value": "0.031 ± 0.003 µM"}
{"SMILES": "CN(C)C/C=C/C(=O)Nc1cc2c(Nc3ccc(F)c(Cl)c3)ncnc2cc1O[C@H]1CCOC1", "tested on": "NCI-H1975 FKBP12F36V-PTPN2", "test": "cell viability, CellTiter-Glo", "conditions": "6 days", "endpoint": "IC50", "value": "2.1 µM"}
{"SMILES": "Cc1c(C)c2c(c(C)c1O)CCC(C)(COc1ccc(CC3SC(=O)NC3=O)cc1)O2 (centres unmarked)", "tested on": "iPSC-derived hepatocytes B1", "test": "cell viability", "conditions": "24 h, differentiation day 23", "endpoint": "IC50", "value": "81 µM"}
{"SMILES": "COc1cc2nccc(Oc3ccc(NC(=O)C4(C(=O)Nc5ccc(F)cc5)CC4)cc3)c2cc1OC", "tested on": "Rh6 (embryonal rhabdomyosarcoma)", "test": "cell growth", "conditions": "3 days", "endpoint": "IC50", "value": "10.4 ± 3.67 µM"}
{"SMILES": "CC1(C)CCC(CN2CCN(c3ccc(C(=O)NS(=O)(=O)c4ccc(NCC5CCOCC5)c([N+](=O)[O-])c4)c(Oc4cnc5[nH]ccc5c4)c3)CC2)=C(c2ccc(Cl)cc2)C1", "tested on": "CD19+ B cells from healthy blood", "test": "cell viability, high-throughput flow cytometry", "endpoint": "IC50", "value": "0.00423 µM"}
{"SMILES": "COc1cc2c3c(n(CCCn4ccnc4)c(=O)c2cc1OC)-c1nc2c(cc1C3=O)OCO2", "tested on": "CHLA-99 Ewing sarcoma cells", "test": "cytotoxicity, MTS", "conditions": "72 h", "endpoint": "IC50", "value": "0.265 ± 0.026 µM"}
{"SMILES": "Nc1nc2cc(CC[C@H]3C[C@@H](n4ccc5c(N)ncnc54)[C@H](O)[C@@H]3O)ccc2cc1Br", "tested on": "PK-1 MTAP deleted", "test": "cell viability", "conditions": "240 h", "endpoint": "IC50", "value": "0.0007 µM"}
{"SMILES": "C[C@H](CCC(=O)O)[C@H]1CC[C@H]2[C@@H]3CC[C@@H]4C[C@H](O)CC[C@]4(C)[C@H]3CC[C@]12C", "tested on": "RWPE-1", "test": "cell viability, MTT", "conditions": "72 h", "endpoint": "IC50", "value": "61 ± 1.6 µM"}
{"SMILES": "C=C1C[C@@]23CC[C@H]4[C@@](C)(CCC[C@@]4(C)C(=O)O)[C@@H]2CC[C@@H]1C3", "tested on": "S102", "test": "cytotoxicity, MTT", "conditions": "75 h", "endpoint": "IC50", "value": "99.3 µM"}
{"SMILES": "Cc1nc(NC(=O)N2CCC[C@H]2C(N)=O)sc1-c1ccnc(C(C)(C)C(F)(F)F)c1", "tested on": "NCI-H1563", "test": "growth rate inhibition, CellTiter-Glo", "conditions": "120 h", "endpoint": "IC50", "value": "0.758 µM"}
{"SMILES": "O=C(O)COCC(=O)O", "tested on": "iPSC-derived hepatocytes B1", "test": "cell viability", "conditions": "48 h, differentiation day 23", "endpoint": "IC50", "value": "9650 µM"}
{"SMILES": "COC(=O)CN=c1scc(-c2ccccc2)n1-c1ccccc1OC", "tested on": "Panc 04.03", "test": "cell viability, MTT", "conditions": "72 h", "endpoint": "IC50", "value": "12.6 µM"}
{"note": "Repeated from above:"}
{"SMILES": "Cn1cc(-c2ccc(-c3cncc(Cl)c3N3CCC4(CCNC4=O)CC3)cc2)cn1", "tested on": "COLO 205", "test": "TCF/LEF reporter gene, inhibitor", "endpoint": "IC50", "value": "0.038 µM"}
{"SMILES": "COc1cc(N2CCC(N3CCN(C)CC3)CC2)ccc1Nc1ncc(Cl)c(Nc2ccccc2S(=O)(=O)C(C)C)n1", "tested on": "Rh2 (embryonal rhabdomyosarcoma)", "test": "cell growth", "conditions": "3 days", "endpoint": "IC50", "value": "0.18 ± 0.04 µM"}
{"SMILES": "COc1cc2c3c(n(CCCNCCO)c(=O)c2cc1OC)-c1nc2c(cc1C3=O)OCO2", "tested on": "CHLA-99 Ewing sarcoma cells", "test": "cytotoxicity, MTS", "conditions": "72 h", "endpoint": "IC50", "value": "0.031 ± 0.003 µM"}
